{"data": "Assay results of several laboratories", "note": "Numbered parts are unrelated; each lists some results of a single study."}
{"data": "Sample 1", "target": "Sal-like protein 4, full length isoform B (SALL4, Homo sapiens, UniProt Q9UJQ4-2, residues 1-616)", "technique": "universal PBM", "form": "double-stranded DNA, one strand shown", "matrix": "in vitro", "tested at": "not given", "notes": "8-mer, flanks averaged, mean of replicates", "reading": "higher = stronger binding"}
{"Oligonucleotide": "CAGGCGGG", "E-score": -0.333}
{"Oligonucleotide": "ATTCAACA", "E-score": 0.123}
{"Oligonucleotide": "AGTATTAC", "E-score": 0.285}
{"Oligonucleotide": "AAAAGCTG", "E-score": 0.0447}
{"Oligonucleotide": "GTACTTCA", "E-score": 0.166}
{"Oligonucleotide": "ATCAGTCC", "E-score": -0.282}
{"data": "Sample 2", "target": "Interferon regulatory factor 3, full length, phosphomimetic (IRF3, Homo sapiens, UniProt Q14653, residues 1-427, S386D/S396D/S398D/S402D/T404D/S405D)", "technique": "protein-binding microarray", "form": "double-stranded DNA, one strand shown", "matrix": "in vitro", "tested at": "2540 nM top", "notes": "60-bp whole probe", "together with": "salmon DNA 0.4 mg/ml", "reference": "random background probes", "reading": "higher = stronger binding", "Residues (chain)": "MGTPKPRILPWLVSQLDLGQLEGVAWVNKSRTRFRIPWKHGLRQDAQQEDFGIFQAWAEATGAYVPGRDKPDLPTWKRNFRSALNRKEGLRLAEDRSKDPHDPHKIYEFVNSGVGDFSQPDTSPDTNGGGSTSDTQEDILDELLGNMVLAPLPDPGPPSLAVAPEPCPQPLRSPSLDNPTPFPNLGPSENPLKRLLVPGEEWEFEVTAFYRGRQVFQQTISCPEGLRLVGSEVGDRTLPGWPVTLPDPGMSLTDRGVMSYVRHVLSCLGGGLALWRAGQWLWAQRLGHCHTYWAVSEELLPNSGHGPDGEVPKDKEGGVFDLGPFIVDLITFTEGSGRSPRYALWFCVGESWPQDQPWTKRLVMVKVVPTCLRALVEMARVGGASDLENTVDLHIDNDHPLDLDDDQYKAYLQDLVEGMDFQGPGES"}
{"Oligonucleotide": "GCCTAGCACGTAAACCATCCAAATGTTATGTGCTAGGTCTTGATTCGCTTGACGCTGCTG", "fitted relative affinity": "0.519 z-score"}
{"Oligonucleotide": "GCCTAGCACTTAGGCTTCGGACTGGGTTAGTGCTAGGTCTTGATTCGCTTGACGCTGCTG", "fitted relative affinity": "-0.9 z-score"}
{"Oligonucleotide": "GCCTAGCACAACCATTTTGTTTTTCATTAGTGCTAGGTCTTGATTCGCTTGACGCTGCTG", "fitted relative affinity": "2.11 z-score"}
{"Oligonucleotide": "GCCTAGCACGAAACACTAATTTTTACTTTGTGCTAGGTCTTGATTCGCTTGACGCTGCTG", "fitted relative affinity": "0.788 z-score"}
{"data": "Sample 3", "target": "Protein max, full length (MAX, Homo sapiens, UniProt P61244-2, residues 1-151)", "technique": "protein-binding microarray", "form": "double-stranded DNA, one strand shown", "matrix": "in vitro", "tested at": "not given", "notes": "k-mer, scored over probes, only values ≥0.25", "reading": "higher = stronger binding"}
{"Oligonucleotide": "CGCGTGTA", "E-score": 0.451}
{"Oligonucleotide": "CACGAGTC", "E-score": 0.373}
{"Oligonucleotide": "ATGCACAC", "E-score": 0.375}
{"Oligonucleotide": "AAGCACGA", "E-score": 0.335}
{"Oligonucleotide": "CACGCGTC", "E-score": 0.444}
{"data": "Other studies, line by line"}
{"Molecule": "PhoQ, residues 284 288 289 292 302 303 SLSVQF", "target": "PhoP, residues 12 14 15 18 19 LFHKL (Escherichia coli, UniProt P23836)", "assay": "Sort-seq, item: YFP reporter", "test system": "E. coli", "conditions": "PhoQ-PhoP variant library, together with: 10 µM Mg2+", "how to read": "reference: high Mg2+ state, higher = stronger signaling", "measurement": "fold induction", "value": 0.878}
{"note": "A few entries again (sample 1):"}
{"Oligonucleotide": "CAGGCGGG", "E-score": -0.333}
{"Oligonucleotide": "ATTCAACA", "E-score": 0.123}
